Published values from different studies.
Parts stem from different laboratories: compare values within a part only.
Chain of UniProt P10721 (whole entry, unmodified, looked up): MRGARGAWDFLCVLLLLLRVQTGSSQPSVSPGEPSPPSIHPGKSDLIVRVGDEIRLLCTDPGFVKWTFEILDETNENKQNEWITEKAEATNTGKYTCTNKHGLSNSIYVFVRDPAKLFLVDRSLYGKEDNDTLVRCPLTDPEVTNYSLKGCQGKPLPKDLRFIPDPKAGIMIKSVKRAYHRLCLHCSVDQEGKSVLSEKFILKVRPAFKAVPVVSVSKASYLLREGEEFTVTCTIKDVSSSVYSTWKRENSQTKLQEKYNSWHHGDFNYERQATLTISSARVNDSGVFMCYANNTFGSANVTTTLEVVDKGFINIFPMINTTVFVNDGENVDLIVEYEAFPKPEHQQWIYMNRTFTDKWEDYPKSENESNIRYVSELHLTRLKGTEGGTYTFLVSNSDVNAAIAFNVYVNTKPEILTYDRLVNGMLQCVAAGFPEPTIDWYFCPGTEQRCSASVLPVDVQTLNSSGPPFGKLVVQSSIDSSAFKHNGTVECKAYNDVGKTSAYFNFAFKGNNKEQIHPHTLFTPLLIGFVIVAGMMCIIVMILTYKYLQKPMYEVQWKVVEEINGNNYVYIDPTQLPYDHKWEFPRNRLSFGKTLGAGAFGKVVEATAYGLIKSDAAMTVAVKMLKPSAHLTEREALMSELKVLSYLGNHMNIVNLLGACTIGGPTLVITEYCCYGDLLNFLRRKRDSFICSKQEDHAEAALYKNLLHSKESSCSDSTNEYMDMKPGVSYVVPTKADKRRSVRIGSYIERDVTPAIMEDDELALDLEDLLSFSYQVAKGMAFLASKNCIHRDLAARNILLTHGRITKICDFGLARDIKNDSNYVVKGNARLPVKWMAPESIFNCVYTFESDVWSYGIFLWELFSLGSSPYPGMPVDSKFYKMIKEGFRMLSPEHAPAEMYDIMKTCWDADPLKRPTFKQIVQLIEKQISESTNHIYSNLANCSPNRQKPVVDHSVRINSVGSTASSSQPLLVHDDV
Chain of UniProt P07948 (whole entry, looked up): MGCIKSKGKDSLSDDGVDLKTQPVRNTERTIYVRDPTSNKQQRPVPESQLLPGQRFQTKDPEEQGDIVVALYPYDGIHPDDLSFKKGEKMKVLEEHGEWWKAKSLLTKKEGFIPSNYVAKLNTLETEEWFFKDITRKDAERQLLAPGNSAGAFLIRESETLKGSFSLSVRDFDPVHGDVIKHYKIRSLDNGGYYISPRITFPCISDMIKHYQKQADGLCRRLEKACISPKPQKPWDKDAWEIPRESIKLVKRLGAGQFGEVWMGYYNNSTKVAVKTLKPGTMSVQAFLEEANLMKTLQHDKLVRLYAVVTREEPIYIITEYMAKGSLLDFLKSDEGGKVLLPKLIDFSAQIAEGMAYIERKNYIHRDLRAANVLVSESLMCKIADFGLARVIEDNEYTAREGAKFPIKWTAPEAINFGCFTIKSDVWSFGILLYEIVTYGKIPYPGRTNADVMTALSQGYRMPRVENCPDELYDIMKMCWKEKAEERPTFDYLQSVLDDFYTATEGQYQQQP
Chain of UniProt P49137 (whole entry, looked up): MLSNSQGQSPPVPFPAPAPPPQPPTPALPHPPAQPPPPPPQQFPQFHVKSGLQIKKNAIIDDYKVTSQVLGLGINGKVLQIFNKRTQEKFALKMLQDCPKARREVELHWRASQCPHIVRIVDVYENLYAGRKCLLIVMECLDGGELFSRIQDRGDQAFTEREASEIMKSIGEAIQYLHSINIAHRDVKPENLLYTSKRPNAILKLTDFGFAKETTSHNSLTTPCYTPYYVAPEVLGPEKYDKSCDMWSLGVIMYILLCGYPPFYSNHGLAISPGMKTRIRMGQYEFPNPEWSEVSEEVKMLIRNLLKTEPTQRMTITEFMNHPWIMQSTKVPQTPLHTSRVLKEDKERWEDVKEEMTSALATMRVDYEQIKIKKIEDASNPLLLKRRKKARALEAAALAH
Chain of UniProt Q13153 (whole entry, looked up): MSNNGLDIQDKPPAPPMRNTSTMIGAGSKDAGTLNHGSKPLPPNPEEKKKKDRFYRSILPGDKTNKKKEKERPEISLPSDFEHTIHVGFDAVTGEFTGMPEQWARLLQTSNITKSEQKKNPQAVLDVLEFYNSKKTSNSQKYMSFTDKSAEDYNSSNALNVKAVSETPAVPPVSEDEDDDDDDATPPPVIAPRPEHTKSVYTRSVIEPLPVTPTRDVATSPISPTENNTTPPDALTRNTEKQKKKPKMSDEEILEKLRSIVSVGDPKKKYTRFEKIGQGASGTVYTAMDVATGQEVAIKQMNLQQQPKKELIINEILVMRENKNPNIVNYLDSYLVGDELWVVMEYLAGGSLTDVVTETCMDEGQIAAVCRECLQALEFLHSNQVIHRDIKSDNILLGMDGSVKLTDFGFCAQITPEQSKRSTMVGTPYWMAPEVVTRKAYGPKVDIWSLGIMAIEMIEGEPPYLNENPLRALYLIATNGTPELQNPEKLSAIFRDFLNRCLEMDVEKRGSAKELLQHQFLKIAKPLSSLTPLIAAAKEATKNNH
Chain of UniProt P0C1S8 (whole entry, looked up): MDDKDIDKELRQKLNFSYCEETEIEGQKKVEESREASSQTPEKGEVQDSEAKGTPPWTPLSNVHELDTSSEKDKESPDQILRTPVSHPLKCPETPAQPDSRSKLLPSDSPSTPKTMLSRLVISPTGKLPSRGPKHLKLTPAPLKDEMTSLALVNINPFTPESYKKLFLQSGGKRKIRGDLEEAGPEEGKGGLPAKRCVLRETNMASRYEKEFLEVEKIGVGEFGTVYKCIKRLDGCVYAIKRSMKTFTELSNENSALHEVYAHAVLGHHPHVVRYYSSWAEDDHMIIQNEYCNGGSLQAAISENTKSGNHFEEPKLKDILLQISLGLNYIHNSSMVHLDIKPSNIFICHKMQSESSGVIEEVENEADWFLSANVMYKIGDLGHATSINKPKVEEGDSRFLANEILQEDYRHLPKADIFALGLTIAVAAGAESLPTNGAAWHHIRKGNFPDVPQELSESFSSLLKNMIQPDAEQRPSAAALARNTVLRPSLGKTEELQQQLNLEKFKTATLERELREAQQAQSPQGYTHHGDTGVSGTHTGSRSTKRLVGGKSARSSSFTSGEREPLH
Chain of UniProt Q8NEB9 (whole entry, looked up): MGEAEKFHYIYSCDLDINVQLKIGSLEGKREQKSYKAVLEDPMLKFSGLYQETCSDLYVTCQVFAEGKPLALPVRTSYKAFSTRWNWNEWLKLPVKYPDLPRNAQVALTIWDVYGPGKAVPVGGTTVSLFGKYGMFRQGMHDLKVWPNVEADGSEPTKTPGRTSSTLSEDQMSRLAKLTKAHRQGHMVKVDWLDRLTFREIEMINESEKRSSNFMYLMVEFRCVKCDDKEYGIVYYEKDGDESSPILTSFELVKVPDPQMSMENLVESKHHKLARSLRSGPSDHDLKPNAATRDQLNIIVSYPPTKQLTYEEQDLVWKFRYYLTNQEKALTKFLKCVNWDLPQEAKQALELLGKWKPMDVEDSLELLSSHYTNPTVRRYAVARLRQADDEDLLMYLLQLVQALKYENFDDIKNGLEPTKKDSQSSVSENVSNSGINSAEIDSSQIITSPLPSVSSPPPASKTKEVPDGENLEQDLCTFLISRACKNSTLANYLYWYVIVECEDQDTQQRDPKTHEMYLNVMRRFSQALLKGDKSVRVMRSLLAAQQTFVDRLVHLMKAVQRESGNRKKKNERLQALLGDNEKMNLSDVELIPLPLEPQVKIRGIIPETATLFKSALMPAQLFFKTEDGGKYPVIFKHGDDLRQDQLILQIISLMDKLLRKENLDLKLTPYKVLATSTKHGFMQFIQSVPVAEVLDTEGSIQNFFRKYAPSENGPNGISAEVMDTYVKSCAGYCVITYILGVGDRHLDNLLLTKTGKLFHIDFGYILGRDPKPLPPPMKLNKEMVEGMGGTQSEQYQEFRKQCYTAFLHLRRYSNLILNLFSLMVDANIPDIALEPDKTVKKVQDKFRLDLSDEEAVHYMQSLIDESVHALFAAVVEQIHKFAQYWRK
Chain of UniProt Q8TDX7 (whole entry, looked up): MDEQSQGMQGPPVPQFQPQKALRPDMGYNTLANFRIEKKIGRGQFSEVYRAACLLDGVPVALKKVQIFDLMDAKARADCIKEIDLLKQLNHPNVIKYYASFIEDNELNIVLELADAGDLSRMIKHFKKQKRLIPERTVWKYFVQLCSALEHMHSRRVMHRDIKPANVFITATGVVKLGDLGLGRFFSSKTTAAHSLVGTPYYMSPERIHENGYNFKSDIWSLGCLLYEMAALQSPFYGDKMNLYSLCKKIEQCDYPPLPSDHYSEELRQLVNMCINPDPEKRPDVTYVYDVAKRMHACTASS

Series 1 — host: human; matrix: microsomes or S9; concentration: 2 µM; time: 0.5 h
Cc1ccc2oc(=O)n([C@H]3c4cc(Br)cnc4OC(C)(C)[C@@H]3O)c2c1 gave a remaining compound of 89%.
COC(=O)c1nccnc1C1=NC(C)(C(C)C)C(=O)N1 (stereo not drawn) has a remaining compound of 68.3%.
For CC(O)c1ccc(-c2ccc(CNn3nnnc3N)o2)cc1 (stereo not drawn), the remaining compound was over 99.9%.

Series 2 — method: competition with immobilised ligand; concentration: 1 µM
SMILES: C[C@@H]1CN(c2cc(-c3nn(C)c4ccc(OC5(C)CC5)cc34)ncn2)C[C@H](C)O1
For WEE2 (Homo sapiens, UniProt P0C1S8); cell-free assay: remaining binding read 96%.
For WNK4 (Homo sapiens, UniProt Q96J92); cell-free assay: remaining binding read 60%.
For PAK1 (Homo sapiens, UniProt Q13153); cell-free assay: remaining binding read 76%.
It gave 64% for remaining binding (KIT (Homo sapiens, UniProt P10721, D816H); cell-free assay).
The remaining binding was 100% (EIF2AK2 (Homo sapiens, UniProt P19525); cell-free assay).
The remaining binding was 97% (ROCK2 (Homo sapiens, UniProt O75116); cell-free assay).
It gave 73% for remaining binding (MAPKAPK5 (Homo sapiens, UniProt Q8IW41); cell-free assay).
The remaining binding was 91% (HIPK3 (Homo sapiens, UniProt Q9H422); cell-free assay).
The remaining binding was 100% (LTK (Homo sapiens, UniProt P29376); cell-free assay).
LYN (Homo sapiens, UniProt P07948); cell-free assay — remaining binding: 82%.
For CAMK2D (Homo sapiens, UniProt Q13557); cell-free assay: remaining binding read 88%.
The remaining binding was 93% (MAPKAPK2 (Homo sapiens, UniProt P49137); cell-free assay).
It gave 79% for remaining binding (NEK7 (Homo sapiens, UniProt Q8TDX7); cell-free assay).
PIK3C3 (Homo sapiens, UniProt Q8NEB9); cell-free assay — remaining binding: 86%.
For Myosin-IIIb (MYO3B, Homo sapiens, UniProt Q8WXR4); binding: remaining binding read 100%.

Series 3 — method: KINOMEscan; concentration: 10 µM; baseline: DMSO control; reading: lower = stronger binding
SMILES: COc1cc(C(=O)N2CCC(N3CCN(C)CC3)CC2)ccc1Nc1ncc2c(n1)N(C)c1ccccc1C(=O)N2C
MAP3K2 — binding: 97%.
For FRK: binding read 34%.
For TLK2: binding read 99%.
PKMYT1 — binding: 80%.
ERBB2 — binding: 100%.
For TLK1: binding read 100%.

Series 4 — observed: enzyme activity; action: inhibitor; concentration: 0.5 µM; baseline: control
Target: SRSF protein kinase 3 (SRPK3, Homo sapiens, UniProt Q9UPE1)
Chain of UniProt Q9UPE1 (whole entry, looked up): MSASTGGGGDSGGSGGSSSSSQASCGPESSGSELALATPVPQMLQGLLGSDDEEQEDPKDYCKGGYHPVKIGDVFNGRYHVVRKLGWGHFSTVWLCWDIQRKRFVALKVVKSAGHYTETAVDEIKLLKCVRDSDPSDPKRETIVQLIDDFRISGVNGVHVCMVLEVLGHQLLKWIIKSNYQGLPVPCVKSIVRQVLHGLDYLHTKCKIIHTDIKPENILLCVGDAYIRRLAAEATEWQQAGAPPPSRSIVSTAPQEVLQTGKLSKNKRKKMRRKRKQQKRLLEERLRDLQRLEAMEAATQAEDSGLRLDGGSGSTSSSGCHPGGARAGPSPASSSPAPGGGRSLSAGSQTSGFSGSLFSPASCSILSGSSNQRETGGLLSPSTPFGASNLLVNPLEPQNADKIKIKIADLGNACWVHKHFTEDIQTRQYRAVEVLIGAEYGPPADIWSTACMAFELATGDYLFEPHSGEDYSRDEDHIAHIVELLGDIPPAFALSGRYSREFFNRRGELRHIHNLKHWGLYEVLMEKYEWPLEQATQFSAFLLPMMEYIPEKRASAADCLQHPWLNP
The remaining activity of Cc1nc(Nc2ncc(C(=O)Nc3c(C)cccc3Cl)s2)cc(N2CCN(CCO)CC2)n1 is reported as 102%.
COc1cc2ncc(-c3ccccc3)nc2cc1OC gave a remaining activity of 91.1%.
With CCOc1cc2ncnc(Nc3cccc(Br)c3)c2cc1OCC the remaining activity was 93.5%.
CC(C)[C@H](CO)Nc1nc(Nc2cccc(Cl)c2)c2ncn(C(C)C)c2n1 gave a remaining activity of 70.4%.
CCN1/C(=C/C(C)=O)Sc2ccc(OC)cc21 has a remaining activity of 95%.
Cn1cnc2cc3c(Nc4cccc(Br)c4)ncnc3cc21 has a remaining activity of 94.9%.
